Assay results gathered from unrelated publications.
A part holds a random share of what one study measured. Substitutions count along the parent as printed.
Chain of UniProt P62256 (whole entry, looked up): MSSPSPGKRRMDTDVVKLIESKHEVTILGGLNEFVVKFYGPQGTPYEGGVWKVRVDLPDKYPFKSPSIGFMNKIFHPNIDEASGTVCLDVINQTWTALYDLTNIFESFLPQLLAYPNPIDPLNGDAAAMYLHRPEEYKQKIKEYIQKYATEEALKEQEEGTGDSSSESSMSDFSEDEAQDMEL
Chain of UniProt O14933 (whole entry, looked up): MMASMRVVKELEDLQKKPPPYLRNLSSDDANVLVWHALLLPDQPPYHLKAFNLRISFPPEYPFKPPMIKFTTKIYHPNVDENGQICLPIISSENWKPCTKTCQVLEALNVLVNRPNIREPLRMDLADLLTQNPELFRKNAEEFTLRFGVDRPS
Chain of UniProt P61077 (whole entry, looked up): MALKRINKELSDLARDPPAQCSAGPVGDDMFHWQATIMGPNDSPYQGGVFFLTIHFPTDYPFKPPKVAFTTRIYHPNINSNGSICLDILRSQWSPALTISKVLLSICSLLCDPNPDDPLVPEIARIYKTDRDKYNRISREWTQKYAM
Chain of UniProt P49427 (whole entry, looked up): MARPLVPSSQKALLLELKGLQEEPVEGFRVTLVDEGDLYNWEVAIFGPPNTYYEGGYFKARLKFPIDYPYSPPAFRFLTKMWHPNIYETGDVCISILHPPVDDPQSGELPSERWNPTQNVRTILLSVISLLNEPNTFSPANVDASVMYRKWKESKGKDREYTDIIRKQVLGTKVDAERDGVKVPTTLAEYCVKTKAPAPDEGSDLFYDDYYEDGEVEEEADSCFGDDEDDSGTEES

Sample 1 — target: CCND1, cyclin fold, Cln2 fusion (human); method: yeast growth competition, sequencing; sample: yeast; notes: weak parent motif; baseline: not given; reading: higher = stronger binding
Starting sequence: SLBP docking peptide (human); ARYKRKLLINDFG
| Change | normalised enrichment score |
| --- | --- |
| ARYKRKLLINDLG [F12L] | 0.236 |
| ARYKRKLLVNDFG [I9V] | -0.217 |
| ARYKRKLLIHDFG [N10H] | -0.101 |
| ARYKRKLLIRDFG [N10R] | -0.481 |
| TRYKRKLLINDFG [A1T] | 0.415 |
| ARWKRKLLINDFG [Y3W] | 0.214 |
| ARYTRKLLINDFG [K4T] | -0.597 |
| ARYKRKLLINDFV [G13V] | 0.577 |
| ARYKRSLLINDFG [K6S] | -0.618 |
| ARFKRKLLINDFG [Y3F] | 0.132 |
| ARHKRKLLINDFG [Y3H] | 0.0627 |
| ARYKRKLLINDFP [G13P] | 0.254 |
| YRYKRKLLINDFG [A1Y] | -0.398 |
| AYYKRKLLINDFG [R2Y] | 0.405 |
| ARYPRKLLINDFG [K4P] | -0.707 |
| ARYKRKLLIGDFG [N10G] | 0.916 |
| ARYKRKLLINTFG [D11T] | 0.482 |
| FRYKRKLLINDFG [A1F] | -0.809 |
| ARYKRKLLINDSG [F12S] | -0.487 |
| ARYKRKLLCNDFG [I9C] | 0.228 |
| ARYKRKLLIKDFG [N10K] | 0.0521 |
| AAYKRKLLINDFG [R2A] | 0.155 |
| ARYKRKDLINDFG [L7D] | -0.367 |
| RRYKRKLLINDFG [A1R] | -0.151 |
| ARYCRKLLINDFG [K4C] | -0.361 |

Sample 2 — method: competition protein-binding microarray; form: double-stranded DNA, one strand shown; sample: in vitro; concentration: 2 µM; together with: Cbf1 competitor, 0.05 µM; reading: higher = stronger binding; constant ends, left off below: … GTCTTGATTCGCTTGACGCTGCTG
Target: Phosphate system positive regulatory protein PHO4, full length, GST-tagged (PHO4, Saccharomyces cerevisiae, UniProt P07270, residues 1-312)
Notes: whole 60-bp probe, lowest competitor level
Construct (chain): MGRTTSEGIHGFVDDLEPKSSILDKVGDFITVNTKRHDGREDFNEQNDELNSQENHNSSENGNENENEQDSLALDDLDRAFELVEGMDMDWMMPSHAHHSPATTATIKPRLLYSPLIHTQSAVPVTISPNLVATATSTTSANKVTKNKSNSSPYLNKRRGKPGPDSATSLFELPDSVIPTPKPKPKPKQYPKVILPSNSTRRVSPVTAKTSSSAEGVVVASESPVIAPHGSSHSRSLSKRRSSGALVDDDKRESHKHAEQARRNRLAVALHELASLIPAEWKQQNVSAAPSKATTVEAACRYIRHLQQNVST
| Sequence | fluorescence intensity |
| --- | --- |
| TCCTTCTACAATCCTTTCGTGACGAATATTGAATCA | 4210 a.u. |
| CATGGCCTCAATGGCCGCGTGTCCAGAGAGTGGACT | 7020 a.u. |
| CTTCTGTAAATTTGTTACGTGGGTGGACGCGCCCCG | 6370 a.u. |
| CGTCCTAGCGATTGACCGGTGGGTGCCATGAGGAAG | 6640 a.u. |
| AAATTACTAAGTTGAGATGTGGGTGACGCCGTATGA | 5000 a.u. |
| GCCGAGGGTAACTTCCACGGGAGAACCTTCGGTGCT | 3380 a.u. |
| CTTTCCCGATCTTGTCACGTGGGTGTAGCACATTTG | 16800 a.u. |
| TAGCACAGGCACCCGCACACGCAGAGCTCACAGACC | 9240 a.u. |
| CTAACGAAGGTTTGAGAAGTGGGTGACAAGCCAAGT | 3510 a.u. |
| TGCGCAACAACTTGTCACGTAACTTTATGTCTAGAA | 3990 a.u. |
| GCTTTTCCTAACGCGAACGTGCAAAGCATCGTTATT | 12000 a.u. |
| CCAAAGCCCTCGAAACGCGTGTTCCTCTCAGCGGCA | 8110 a.u. |
| CTAACGAAGGTTTGCGGAGTGGGTGACAAGCCAAGT | 3470 a.u. |
| AAGACATATAATCAAAACGTGAGATTCCTGTGGAAA | 9150 a.u. |
| CGGAAAGGGCTGGGCCACGTGGGCGGCTGCTGAGTG | 23000 a.u. |
| TGCGCAACAACTTGTCTTGTGGGTGTATGTCTAGAA | 4510 a.u. |
| CCTCGGAAAAACCTCCACGTGTTGGGTTATTCCGCC | 18200 a.u. |
| AAATTACTAAGTTGTCACATCACTTACCCCGTATGA | 3860 a.u. |
| CCTGCCAAGGGTAACCACGTGCTGGGAGATTTGCAG | 17900 a.u. |
| GGCCACCAAAGTCCACACGTTGCGCTTGCCTTTTTG | 11700 a.u. |
| CATGATTTTTGCTTTGGCATTGTTCTGGTATGGTAT | 4550 a.u. |
| TGGCGGCGGGATCTACACGTGCGCCTCGGGAAGGCG | 16400 a.u. |

Sample 3 — method: yeast two-hybrid; sample: yeast; notes: mostly zero background; baseline: not given; reading: higher = stronger interaction
Molecule: KPDKMEETLTCIICQDLLHDCVSLQPCMHTFCAACYSGWMERSSLCPTCRCPVERICKNH (CHFR RING domain (UniProt Q96EP1))
| target | lacZ reporter activity |
| --- | --- |
| CDC34 UBC core domain (UniProt P49427) | 0 |
| UBE2D3 UBC core domain (UniProt P61077) | 9700 |
| UBE2L6 UBC core domain (UniProt O14933) | 0 |
| UBE2H UBC core domain (UniProt P62256) | 0 |

Sample 4 — target: ATF2, bZIP domain (human); method: DHFR protein complementation; sample: yeast; baseline: wild-type JUN-FOS pair; reading: higher = stronger binding
Notes: single substitutions, most at no-binding floor
Starting sequence: JUN, bZIP domain (human); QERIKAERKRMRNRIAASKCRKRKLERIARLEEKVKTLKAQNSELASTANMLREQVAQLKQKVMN; partner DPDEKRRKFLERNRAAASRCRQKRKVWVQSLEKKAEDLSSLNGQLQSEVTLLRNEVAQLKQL
| Change | binding fitness [natural log] |
| --- | --- |
| L59S | -1.32 |
| M51W | -1.45 |
| E54D | -1.35 |
| K39A | -1.35 |
| R53T | -1.54 |
| T48A | -1.37 |
| S43Y | -1.29 |
| V35A | -1.53 |
| K36N | -1.49 |
| A49Y | -1.48 |
| E33A | -1.43 |
| L31K | -1.54 |
| A57Q | -1.42 |
| S47T | -1.29 |
| S43D | -1.32 |
| A40D | -1.41 |
| K39M | -1.32 |
| T48C | -1.42 |
| V56C | -1.47 |
| K34C | -1.57 |

Sample 5 — method: DHFR PCA, deep sequencing; sample: yeast; together with: (+)-ABA 0.0091 µM; baseline: wild-type fitted maximum; reading: higher = stronger binding
Target: ABI1, truncated, D143A, DHFR fusion (Arabidopsis thaliana)
Notes: methotrexate growth selection, single substitutions
Starting sequence: PYL1, truncated, DHFR fusion (Arabidopsis thaliana); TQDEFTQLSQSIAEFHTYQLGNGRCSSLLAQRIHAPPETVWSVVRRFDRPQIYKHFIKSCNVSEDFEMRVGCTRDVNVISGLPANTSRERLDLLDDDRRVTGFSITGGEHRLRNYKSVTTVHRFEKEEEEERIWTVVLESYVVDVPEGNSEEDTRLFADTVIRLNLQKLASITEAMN
| Change | relative binding score |
| --- | --- |
| R88Q | 24.4% |
| V145D | -1.99% |
| I162T | 8.45% |
| T154W | -5.6% |
| E131F | 13% |
| L156A | 7.11% |
| D3T | 17.5% |
| V62G | -5.58% |
| T135R | -4.67% |
| T160A | 8.89% |
| R123A | 55.2% |
| L82R | 9.8% |
| G148M | -5.09% |
| F157M | 0.383% |

Sample 6 — method: RNA Bind-n-Seq; form: RNA; sample: in vitro; concentration: not given; baseline: input RNA pool; reading: higher = stronger binding
Target: RING finger protein unkempt homolog, zinc fingers 1-6, GST-SBP tag (UNK, Homo sapiens, UniProt Q9C0B0, residues 30-357)
Notes: RNA with constant flanks, human and mouse sites, ends assumed
Constant ends, left off below: GGGAGUUCUACAGUCCGACGAUC … CAACAGAGGAUUGAGCAUCA
Construct (chain): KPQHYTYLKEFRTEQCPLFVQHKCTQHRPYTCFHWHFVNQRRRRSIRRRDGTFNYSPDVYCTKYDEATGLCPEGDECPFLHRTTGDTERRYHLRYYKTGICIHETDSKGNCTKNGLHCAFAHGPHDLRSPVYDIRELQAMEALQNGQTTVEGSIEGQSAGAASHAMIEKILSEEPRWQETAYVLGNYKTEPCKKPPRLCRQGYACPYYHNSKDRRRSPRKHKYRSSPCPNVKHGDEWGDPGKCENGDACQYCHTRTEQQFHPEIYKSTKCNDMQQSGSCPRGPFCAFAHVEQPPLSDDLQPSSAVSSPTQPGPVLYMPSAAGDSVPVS
| Sequence | bound/input enrichment |
| --- | --- |
| UAAAUCCAUUUGUAAGCAUUUAUCCCAUAUAUUUUAAAUUCAAGAAAAAUUGUGUUUAUCUUUAGAAUUUUGUAUUCAAUACUUUAUGUACUAUGUGACUCAUGCUUCUGGAUAAAUAAA | 11.7 ratio |
| CUGCCCUAGAAUUGUUAUGUUGGGCAUCACAGUCAUGAACUUUUGUUUUUCUCCCUUUUUUAGUUUUUUCAAAGAUGGGGGGAAGGGAAAUAUGAGCCUUUGUUGCUUUCAAAACGAGAA | 14.2 ratio |
| GUAUGGUUACUAAAAAGUACCAGCAUGUUAACUUUAUUACAAUUUGUAUUACUUUCUCUGUAGUUCCUAAUGGAUUCAAUUACGGACUCUGGAUAUUUGCACUUAUGUACUUGAUACUGA | 0.461 ratio |
| CUCAUGCAGUUGUGGUCAAUAUUGUGGUAAUCGCUAAUUGUACUGAUUGUUUAAGUGUGCAUUAGUUGUGUCUCCCCAGCUAGAUUGUAAGCUCCUGGAGGACAGGGACCACCUCUACAA | 0.251 ratio |
| GUGACCACAGAUGCAACCCUUUCUAGGCUCUACACUGUAAAUAAUUCUAUAAAUACUUUGAUUUUAAAAAAGAACUAUUUUUGAUUUGGGGAGGCAGGCUUUUAUAUACAUGAGCCUUUA | 0.561 ratio |
| CAGCCUCAGAGCCCAGACUUCCUGGAUAUUACCAACCCUAAAGCGGUAUUAGAAAAUGCAUUGAGAAACUUCGCCUGUCUGACGACUGGAGAUGUGAUUGCUAUCAACUACAAUGAGAAG | 0.402 ratio |
| GCACGUCAGAAGAUGACCCUUGAGUCAUUCUCUAAGGUGCCGCCUUUGAUUGCAAGCUUUGUUAGGUCGAAGAGAAAGGAAGACUCUCCGAACCUAAGGGAAGCGUUGGAGAACGAAUUC | 0.0621 ratio |
| GCUGGCUUCUUUGGACUCCCUAUAUGAUUGAUGAUGUGAAAACCUAAAUUACUUGCAGCAUAGUAUUACUUCUUUGAUGUUCUCAUUAGCAUAAUGUUAUUUUUGAAAAGGAAAGAUACU | 1.68 ratio |
| GGGUCCUGCAGGAAGCAGUGUUCUCCUUGGUGCCCGGGGAAACCUCCCAUGUCUGUUUCCUAUAGGCCACUUGUUCCUCACGACCAUCCGGCCUGACAAUCAGAAUUCCUAUCUCAUUGC | 0.196 ratio |
| AAAGUGAAACUGGCAGCUGUGGAUGCCACCAUGAAUCAGGUUCUGGCCAGCCGAUACGGGAUUAAAGGAUUCCCUACAAUCAAGAUAUUUCAGAAAGGCGAGUCUCCUGUGGACUAUGAU | 0.135 ratio |
| AAUUGAAAUGGCUCCUGUAUCACAUACGGAGGUCUUGUGUAUCUGUGGCAACAGGGAGUUUCCUUAUUCACUCUUUAUUUGCUGCUGUUUAAGUUGCCAACCUCCCCUCCCAAUAAAAAU | 0.285 ratio |

Repeated from above (sample 2):
| Sequence | fluorescence intensity |
| --- | --- |
| TCCTTCTACAATCCTTTCGTGACGAATATTGAATCA | 4210 a.u. |
| CATGGCCTCAATGGCCGCGTGTCCAGAGAGTGGACT | 7020 a.u. |
| CTTCTGTAAATTTGTTACGTGGGTGGACGCGCCCCG | 6370 a.u. |
| CGTCCTAGCGATTGACCGGTGGGTGCCATGAGGAAG | 6640 a.u. |
| AAATTACTAAGTTGAGATGTGGGTGACGCCGTATGA | 5000 a.u. |
| GCCGAGGGTAACTTCCACGGGAGAACCTTCGGTGCT | 3380 a.u. |
| CTTTCCCGATCTTGTCACGTGGGTGTAGCACATTTG | 16800 a.u. |
